Measurements of several laboratories.
“And” joins repeats or separate records; there may be more than shown.
Target: Aurora kinase C (AURKC, Homo sapiens, UniProt Q9UQB9)

COCC12C(=O)NC3C4(C(OC)CC1O)C1CC5(O)C(OC)C(O)C(OC(C)=O)(C1C5OC(=O)c1ccccc1)C3(O)C(OC)C24 (stereo not drawn) has a remaining activity of 110% and 98% (kinase activity, inhibitor, ProQinase kinase profiling; 25 µM; relative to: control).
For CN1CC[C@@H](COc2cnc(C#N)cc2-c2ccn3nc(NC(=O)C4CC4)cc3c2)C1, the inhibition was 11% (enzyme activity, inhibitor; 1 µM).
With NC(=O)[C@@H](O)C[C@H]1CCc2sc3ncnc(O[C@H]4CC[C@H](N5CCOCC5)CC4)c3c21 the inhibition was 6% (enzyme activity, inhibitor; 10 µM).
C[C@]1(O)CCCN(c2nc(Nc3ccc(S(=O)(=O)N[C@H]4CC[C@H](CN5CCN(c6ccc(C7CCC(=O)NC7=O)cc6F)CC5)CC4)cc3)ncc2C(F)(F)F)C1 (stereo partly drawn) gave a remaining binding of 1.1% (binding, competition with immobilised ligand; 1 µM).
The remaining binding of Cc1cnc2nc1Nc1cccc(c1)COC/C=C/COCc1cc(ccc1OCCN1CCOCC1)N2 is reported as 100% (binding; 0.1 µM).
C=CC(=O)Nc1cccc(-c2cnc3[nH]cc(C(=O)NC(C)(C)C)c3n2)c1 has an inhibition of 15% and 10% (kinase activity; 0.1 µM).
The remaining binding of CCN1CCN(Cc2ccc(C(=O)Nc3ccc(C)c(NCc4cnc5[nH]ccc5c4OC)c3)cc2C(F)(F)F)CC1 is reported as 71% (binding, competition with immobilised ligand; 1 µM).
CC(C)=CC1OC(C)(C)C2C=C3C(=O)C(Cl)=CC(O)C3C3C(O)C4OC4C(=O)C132 (stereo not drawn) has a remaining binding of 86% (cell-free assay, competition with immobilised ligand; 10 µM).
For Cc1cccc(O[C@H]2CCC[C@@H](C(C)CNCc3ccncc3)C2)c1 (relative stereo), the inhibition was 0% (cell-free assay; 10 µM).
The remaining binding of Cc1ccc(-c2c(/C=C(\C#N)C(=O)NC(C)C)n(CCCO)c3ncnc(N)c23)cc1 is reported as 71% (cell-free assay, competition with immobilised ligand; 1 µM).
CCn1cc(C(=O)O)c(=O)c2c(N)c(F)c(NC3CCCCC3)cc21 has an inhibition of 12.3% (kinase activity; 0.1 µM, together with: ATP at Km).
With C=CC(=O)N1Cc2nc(-c3cc(-c4cc(Cl)cnc4Cl)c(F)cc3F)n(-c3ccncn3)c2C1 the inhibition was 14.6% (cell-free assay, inhibitor; 1 µM).
CN1CCN(Cc2ccc(-c3ccc(CO[C@H]4CCC[C@@H]4NC(=O)c4cc(-c5cnn(C)c5)cnc4N)cc3)cc2)CC1 gave an inhibition of 5% (enzyme activity, inhibitor; 0.1 µM).
For COc1ccc(NC(=O)Nc2ccc3c(c2)C(=O)N(C(C)CO)CC(C)C(CN(C)Cc2ccc4c(c2)OCO4)O3)cc1 (stereo not drawn), the remaining binding was 3% (binding, competition with immobilised ligand; 10 µM).
The remaining binding of COc1cc(Nc2nccc(-c3cnn4nc(OC)ccc34)n2)cc(C(F)(F)F)c1 is reported as 100% (binding, competition with immobilised ligand; 1 µM).

A few entries again:
C=CC(=O)Nc1cccc(-c2cnc3[nH]cc(C(=O)NC(C)(C)C)c3n2)c1 has an inhibition of 15% and 10% (kinase activity; 0.1 µM).
With NC(=O)[C@@H](O)C[C@H]1CCc2sc3ncnc(O[C@H]4CC[C@H](N5CCOCC5)CC4)c3c21 the inhibition was 6% (enzyme activity, inhibitor; 10 µM).
